Measurements pooled from the literature.
Each numbered part is a random draw from the data of one study; scales do not carry over between parts. Several values in a cell are separate wells, animals, samples, runs or records.
Sequence of UniProt P46934 (whole entry, looked up): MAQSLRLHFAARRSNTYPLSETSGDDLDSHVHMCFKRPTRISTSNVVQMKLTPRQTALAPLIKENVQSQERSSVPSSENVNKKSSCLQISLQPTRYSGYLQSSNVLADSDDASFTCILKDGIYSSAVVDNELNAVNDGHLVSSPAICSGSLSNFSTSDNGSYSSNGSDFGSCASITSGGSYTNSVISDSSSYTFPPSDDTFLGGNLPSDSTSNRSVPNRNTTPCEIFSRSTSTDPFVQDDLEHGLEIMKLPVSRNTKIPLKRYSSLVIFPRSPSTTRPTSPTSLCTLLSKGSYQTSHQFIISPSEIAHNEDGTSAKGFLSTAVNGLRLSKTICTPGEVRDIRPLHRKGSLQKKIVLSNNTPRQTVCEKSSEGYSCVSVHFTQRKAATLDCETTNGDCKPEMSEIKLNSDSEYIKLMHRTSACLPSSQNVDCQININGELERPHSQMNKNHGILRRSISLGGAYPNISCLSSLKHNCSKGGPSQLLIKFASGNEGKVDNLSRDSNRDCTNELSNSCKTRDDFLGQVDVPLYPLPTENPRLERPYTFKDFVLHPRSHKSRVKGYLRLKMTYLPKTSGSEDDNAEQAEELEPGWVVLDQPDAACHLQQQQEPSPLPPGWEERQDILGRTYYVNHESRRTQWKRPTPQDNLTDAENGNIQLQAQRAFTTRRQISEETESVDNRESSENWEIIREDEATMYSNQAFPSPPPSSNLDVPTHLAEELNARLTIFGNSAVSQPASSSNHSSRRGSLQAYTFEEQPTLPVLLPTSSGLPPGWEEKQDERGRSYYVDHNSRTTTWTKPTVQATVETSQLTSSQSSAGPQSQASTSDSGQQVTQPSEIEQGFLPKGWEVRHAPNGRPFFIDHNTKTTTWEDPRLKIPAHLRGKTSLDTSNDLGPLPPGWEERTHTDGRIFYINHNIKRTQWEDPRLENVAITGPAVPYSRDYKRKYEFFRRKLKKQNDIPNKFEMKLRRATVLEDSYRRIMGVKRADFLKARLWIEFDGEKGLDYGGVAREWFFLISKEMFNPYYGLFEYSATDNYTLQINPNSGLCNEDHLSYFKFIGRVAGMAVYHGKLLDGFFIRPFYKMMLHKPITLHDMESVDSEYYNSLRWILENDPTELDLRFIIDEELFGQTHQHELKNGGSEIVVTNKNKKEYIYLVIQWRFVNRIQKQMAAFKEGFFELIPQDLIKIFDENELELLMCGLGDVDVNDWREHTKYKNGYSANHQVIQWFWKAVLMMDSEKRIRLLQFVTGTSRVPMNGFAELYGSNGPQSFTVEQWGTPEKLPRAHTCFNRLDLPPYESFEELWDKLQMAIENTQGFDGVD

Series 1 — cell line: U-87 MG; tested at: concentration not given; reference: DMSO; quantity: log2 fold change
SMILES: CCN1/C(=C/C=C2\CCCC(/C=C/C3=[N+](CC)c4ccccc4C3(C)C)=C2NCCCCCCCCN2CCC(Nc3nc4ccccc4n3Cc3ccc(F)cc3)CC2)C(C)(C)c2ccccc21
refers to: MIDN mRNA: -1.15
refers to: EVC2 mRNA: 0.836
refers to: EFCAB13 mRNA: 0.955
refers to: NUP85 mRNA: -0.891
refers to: SLC2A3 mRNA: 1.52
refers to: TXLNG mRNA: 0.915
refers to: CLCN4 mRNA: -1.08
refers to: POC1A mRNA: -1.07
refers to: SELL mRNA: -1.67
refers to: TSPAN15 mRNA: -2.5
refers to: EEPD1 mRNA: -1.78

Series 2 — observed: thermal unfolding; technique: differential scanning fluorimetry; tested at: 5.5 µM; reading: higher = more unfolded; quantity: SYPRO Orange fluorescence
Compound: C[C@@H]1CN(c2ccc(-c3cc(C(=O)NCCOCCOCCOCCOCCOCCOCCNC(=O)/C=C/c4[nH]cc(C(=O)N[C@@H](CC(N)=O)c5ccc(F)c(Cl)c5)c4-c4ccc(Cl)cc4F)ccc3F)cc2NC(=O)c2ccc(F)cc2C(F)(F)F)C[C@H](C)N1C
WDR5: WD repeat-containing protein 5 (WDR5, Homo sapiens, UniProt P61964)
DCAF1: DDB1- and CUL4-associated factor 1 (DCAF1, Homo sapiens, UniProt Q9Y4B6)
Sequence of UniProt Q9Y4B6 (whole entry, looked up): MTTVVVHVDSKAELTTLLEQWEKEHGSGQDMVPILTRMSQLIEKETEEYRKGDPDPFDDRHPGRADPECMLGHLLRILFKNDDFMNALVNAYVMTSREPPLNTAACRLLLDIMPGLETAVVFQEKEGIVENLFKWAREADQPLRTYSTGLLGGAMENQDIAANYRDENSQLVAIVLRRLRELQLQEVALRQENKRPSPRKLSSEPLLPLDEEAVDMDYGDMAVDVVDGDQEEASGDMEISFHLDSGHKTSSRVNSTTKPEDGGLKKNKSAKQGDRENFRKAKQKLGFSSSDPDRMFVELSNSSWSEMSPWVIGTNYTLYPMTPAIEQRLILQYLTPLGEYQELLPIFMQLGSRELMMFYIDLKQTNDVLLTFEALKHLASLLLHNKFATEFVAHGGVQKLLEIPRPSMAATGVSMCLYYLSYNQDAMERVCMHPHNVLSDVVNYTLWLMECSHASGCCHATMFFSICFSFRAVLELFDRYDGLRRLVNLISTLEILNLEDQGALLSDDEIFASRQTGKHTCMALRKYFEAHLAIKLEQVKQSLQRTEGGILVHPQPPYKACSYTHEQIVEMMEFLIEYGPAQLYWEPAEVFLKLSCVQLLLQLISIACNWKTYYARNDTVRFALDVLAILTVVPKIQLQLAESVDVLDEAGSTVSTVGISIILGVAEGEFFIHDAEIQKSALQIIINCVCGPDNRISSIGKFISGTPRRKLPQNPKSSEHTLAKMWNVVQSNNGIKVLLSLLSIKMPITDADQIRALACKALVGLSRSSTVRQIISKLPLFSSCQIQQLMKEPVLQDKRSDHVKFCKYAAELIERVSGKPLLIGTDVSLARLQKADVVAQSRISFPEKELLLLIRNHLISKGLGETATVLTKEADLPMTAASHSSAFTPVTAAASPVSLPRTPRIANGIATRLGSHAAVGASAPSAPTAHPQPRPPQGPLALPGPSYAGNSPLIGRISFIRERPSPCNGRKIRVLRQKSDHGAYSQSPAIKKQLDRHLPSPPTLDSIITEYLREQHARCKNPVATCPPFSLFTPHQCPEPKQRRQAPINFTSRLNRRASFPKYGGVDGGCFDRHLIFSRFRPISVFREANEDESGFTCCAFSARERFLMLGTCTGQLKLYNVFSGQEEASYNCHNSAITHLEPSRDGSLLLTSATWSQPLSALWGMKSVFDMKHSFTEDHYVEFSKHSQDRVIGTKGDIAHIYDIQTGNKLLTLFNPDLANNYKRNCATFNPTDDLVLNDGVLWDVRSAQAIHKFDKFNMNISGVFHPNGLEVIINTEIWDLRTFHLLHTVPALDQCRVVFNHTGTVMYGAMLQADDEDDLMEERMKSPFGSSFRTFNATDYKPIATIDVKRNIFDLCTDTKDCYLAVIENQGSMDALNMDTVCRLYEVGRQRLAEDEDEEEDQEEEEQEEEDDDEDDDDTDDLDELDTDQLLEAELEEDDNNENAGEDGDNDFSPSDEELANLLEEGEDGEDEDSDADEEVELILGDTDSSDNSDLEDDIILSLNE
WDR5; 75.21 °C: 49500 a.u.
WDR5; 51.2 °C: 16800 a.u.
DCAF1; 65.61 °C: 53100 a.u.
DCAF1; 55.61 °C: 28900 a.u.
DCAF1; 86.81 °C: 34400 a.u.
DCAF1; 43 °C: 13500 a.u.
WDR5; 47.6 °C: 15400 a.u.

Other studies, line by line
PKMYT1: Membrane-associated tyrosine- and threonine-specific cdc2-inhibitory kinase (PKMYT1, Homo sapiens, UniProt Q99640)
Sequence of UniProt Q99640 (whole entry, looked up): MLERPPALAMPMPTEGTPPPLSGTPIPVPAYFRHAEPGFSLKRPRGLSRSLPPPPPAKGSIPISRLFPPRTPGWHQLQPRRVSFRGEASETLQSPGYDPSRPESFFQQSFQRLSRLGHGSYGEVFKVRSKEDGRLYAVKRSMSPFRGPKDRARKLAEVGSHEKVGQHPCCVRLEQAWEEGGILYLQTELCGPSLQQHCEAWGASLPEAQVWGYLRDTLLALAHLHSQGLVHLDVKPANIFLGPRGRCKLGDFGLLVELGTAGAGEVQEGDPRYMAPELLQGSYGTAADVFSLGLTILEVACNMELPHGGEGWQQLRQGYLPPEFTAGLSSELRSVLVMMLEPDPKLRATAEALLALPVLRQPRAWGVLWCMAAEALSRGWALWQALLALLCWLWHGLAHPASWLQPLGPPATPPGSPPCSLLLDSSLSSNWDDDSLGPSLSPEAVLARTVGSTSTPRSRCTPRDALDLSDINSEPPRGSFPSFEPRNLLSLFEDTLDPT
Cc1ccc(O)c(C)c1-c1cnc2[nH]c(-c3cnc(N4CCC(CN5CCN(c6ccc(NC7CCC(=O)NC7=O)cc6F)CC5)CC4)nc3)cc2c1C#N (centres unmarked)
AUC(0-last) (Beagle dog, male, plasma; oral, 5 mg/kg): 1170 ng·h/mL

Cl.NC(=O)/C=C/CNCCCN1c2ccccc2CCc2ccc(Cl)cc21
inhibition (E3 ubiquitin-protein ligase NEDD4 (Homo sapiens, UniProt P46934); enzyme activity, inhibitor, TR-FRET; 11 µM): 20.7%

Cc1ccc(O)c(C)c1-c1cnc2[nH]c(-c3cnc(N4CCC(CCN5CCN(c6ccc7c(c6)C(=O)N(C6CCC(=O)NC6=O)C7=O)CC5)CC4)nc3)cc2c1C#N (racemic)
inhibition (PKMYT1; binding, HTRF; 37.04 nM): 93.5% and 95.4%

Cc1ccc(O)c(C)c1-c1cnc2[nH]c(-c3cnc(N4CCC5(CC4)CC(N4CCN(c6ccc(N[C@H]7CCC(=O)N(C)C7=O)cc6F)CC4)CO5)nc3)cc2c1C#N (single isomer, unassigned)
degradation (PKMYT1; degrader, automated immunoblot (Jess); 37.04 nM, 24 h): 11.3%

Cc1ccc(O)c(C)c1-c1cnc2[nH]c(-c3cnc(N4CC5(CC(CN6CCN(c7ccc(NC8CCC(=O)NC8=O)cc7F)CC6)C5)C4)nc3)cc2c1C#N (centres unmarked)
phospho-CDK1 (Thr14) level (HCC1569; CDK1 Thr14 phosphorylation, in-cell western; 4.12 nM; lower = stronger inhibition): 39.6 a.u. and 33.6 a.u.
